Published values of several laboratories.
Compare with care: the assays were run in different laboratories. Numbers after ± are the reported error.
Cell line: Caco-2

With CCC(C)OC(=O)c1ccc(O)cc1 (stereo not shown) the hydrolysed compound was 5.2 ± 0.4% (5 µM, 60 min, A-B direction).
The recovery of CCCCC(CC)CNC(=N)NC(=N)NCCCCCCCCNC(=N)NC(=N)NCC(CC)CCCC (stereo not shown) is reported as 24.3% (5 µM, 2 h, basolateral to apical).
For c1cc2nc(c1)-c1cccc(n1)CCCc1ccc(cc1)OCCCCCCOc1ccc(cc1)CCC2, the viability was 73.8% (cell growth or viability, MTT; 50 µM, 48 h).
With COc1cc(-c2cncc(-c3ccc(N4CCN(C)CC4)cc3)c2C)cc(OC)c1OC the Papp B-A was 14.5 ×10⁻⁶ cm/s (5 µM, 120 min, pH 7.4).
CC(C)COC(=O)c1ccc(O)cc1 gave a hydrolysed compound of 17.1 ± 2.8% (5 µM, 60 min, A-B direction).
With CO[C@@H](C[C@H]1C(C)=CC[C@@H]2[C@]3(C)C[C@H](O[C@@H]4O[C@@H](C)[C@H](O)[C@@H](O)[C@H]4O)[C@@H](O)C(C)(C)[C@H]3CC[C@]21C)[C@H](N)C(=O)O the recovery was 92% (transwell permeability; 5 µM, 1 h).
For CNC(=N)NC(=N)NCCCCCCNC(=N)NC(=N)NC, the recovery was 87.9% (5 µM, 2 h, basolateral to apical).
C[C@@H](CO)NC(=O)c1cc(-c2ccc(Cl)cc2)nn(-c2cnn(C)c2)c1=O — result for “Papp A to B”: 25.5 ×10⁻⁶ cm/s (2 µM, 3 h, pH 7.2).
CC[C@H](C)[C@@H](C(=O)N[C@@H](Cc1ccc(O)cc1)C(=O)N1CCC[C@H]1C(=O)N[C@@H](Cc1ccccc1)C(=O)O)n1cc(C(Cc2ccc(O)cc2)NC(=O)[C@@H](NC(=O)[C@H](CCCNC(=N)N)NC(=O)[C@@H](N)CC(=O)O)C(C)C)nn1 (stereo partly shown) has a viability of 55.3% (cell growth or viability, MTT; 200 µM, 48 h).
COc1cc(-c2cncc(-c3ccc(N4CCNCC4)cc3)c2C)cc(OC)c1OC gave a Papp B-A of 8 ×10⁻⁶ cm/s (5 µM, 120 min, pH 7.4).
CC1CN(C(C)CO)C(=O)c2cccc(N(C)C(=O)c3ccncc3)c2OC1CN(C)Cc1ccc(Oc2ccccc2)cc1 (stereo not shown) has a mass recovery of 74.6 ± 1.8% (time not given, apical pH 7.4, basolateral pH 7.4).
The recovery of CCCCC(CC)CNC(=N)NC(=N)NCCC (stereo not shown) is reported as less than 57.1% (5 µM, 2 h, apical to basolateral).
CNC(=O)C[C@H](Cc1ccc(C#N)cc1)NC(=O)c1cc(-c2ccc(CN[C@H](C)c3ccc(C)cc3)o2)ccc1Cl gave a Papp B-A of 6 ×10⁻⁶ cm/s (2 µM).
The hydrolysed compound of O=C(Oc1ccccc1)c1ccc(O)cc1 is reported as 70 ± 0.7% (5 µM, 60 min, A-B direction).
For CCC(CC)CNC(=N)NC(=N)NCCCCCCNC(=N)NC(=N)NCC(CC)CC, the recovery was 75.3% (5 µM, 2 h, basolateral to apical).
N#Cc1cccc(-c2ccc(=O)n(Cc3cccc(-c4ncc(OCC5CCN(CC(=O)N6CCN(c7ccc8c(c7)C(=O)N(C7CCC(=O)NC7=O)C8=O)CC6)CC5)cn4)c3)n2)c1 (stereo not shown) has a Papp B-A of 0.01 ± 0.01 ×10⁻⁶ cm/s (transwell monolayer; 2 µM, 120 min, pH 7.4, 0.1% DMSO, added: GF120918 10 µM).

For quick reference, copied from above:
C[C@@H](CO)NC(=O)c1cc(-c2ccc(Cl)cc2)nn(-c2cnn(C)c2)c1=O — result for “Papp A to B”: 25.5 ×10⁻⁶ cm/s (2 µM, 3 h, pH 7.2).
CC[C@H](C)[C@@H](C(=O)N[C@@H](Cc1ccc(O)cc1)C(=O)N1CCC[C@H]1C(=O)N[C@@H](Cc1ccccc1)C(=O)O)n1cc(C(Cc2ccc(O)cc2)NC(=O)[C@@H](NC(=O)[C@H](CCCNC(=N)N)NC(=O)[C@@H](N)CC(=O)O)C(C)C)nn1 (stereo partly shown) has a viability of 55.3% (cell growth or viability, MTT; 200 µM, 48 h).
COc1cc(-c2cncc(-c3ccc(N4CCNCC4)cc3)c2C)cc(OC)c1OC gave a Papp B-A of 8 ×10⁻⁶ cm/s (5 µM, 120 min, pH 7.4).
